Results pooled from the literature.
Each line is one published result; not all experiments were run side by side. ± marks the error that the study gave.

SMILES	cell line	assay	system	conditions	how to read	IC50
COc1cc([C@@H]2c3cc4c(cc3C[C@H]3COC(=O)[C@@H]32)OCO4)cc(OC)c1OC	cells without MycN induction (no doxycycline)	cell growth, sulforhodamine B	–	–	–	1.7 ng/mL
COc1cc2c(OC)c3c(c(-c4ccc5c(c4)OCO5)c2cc1OC)C(=O)OC3	HEK293	endosomal acidification	–	–	–	0.265 ± 0.0586 µM
O=C(O)C(Cl)Cl	2008 ovarian adenocarcinoma, cisplatin-sensitive	MTT	–	72 h	–	> 50 µM
CN1CCN(S(=O)(=O)c2cc([N+](=O)[O-])ccc2N(CCOS(C)(=O)=O)CCOS(C)(=O)=O)CC1	sample G B-ALL PDX cells	cell viability	ex vivo	48 h, added: AKR1C3 inhibitor 1 µM, 1 h pretreatment	–	22.7 µM
Cc1cccc(N(C)C(=O)[C@@H]2[C@H](O)CCN2c2nc(C)cc(C(F)(F)F)c2C#N)c1	DLD-1 BRCA2-knockout	colony survival	–	–	–	~2.5 µM
CS(=O)(=O)OCCN(CCBr)c1c(C(=O)NCCO)cc([N+](=O)[O-])cc1[N+](=O)[O-]	sample H B-ALL PDX cells	cytotoxicity	–	BCP-ALL, ex vivo	–	20.7 µM
CC[C@@H](C)[C@H](N)C(=O)N1Cc2ccccc2C1	THP-1 CASP1 knock-out	cell viability, CellTiter-Glo	–	–	relative to: DMSO	> 60 µM
COc1cc2c(O)c3c(c(-c4ccc5c(c4)OCO5)c2cc1OC)C(=O)N(/N=C/c1ccc(C#N)cc1)C3	HEK293	endosomal acidification	–	4 h	–	> 10 µM
N.N.[Cl][Pt][Cl]	A3/KAW	cell proliferation, CellTiter-Glo	–	72 h	–	0.59 µM
COc1ccc2c(n1)CCN(C(=O)[C@H]1C[C@@H](CC(=O)O)C1)[C@H]2C(=O)Nc1cc(F)c2c(c1)CCC2(C)C	HCC70 and MDA-MB-468	cell growth, CellTiter-Glo	–	96 h	–	≥ 20 µM
CO/C1=C\C(C)=C\[C@@H](C)[C@@H](O)[C@@H](C)C/C(C)=C/C=C/[C@H](OC)[C@@H]([C@@H](C)[C@@H](O)[C@H](C)[C@@]2(O)C[C@@H](O)[C@H](C)[C@@H](C(C)C)O2)OC1=O	HEK293	endosomal acidification	–	–	–	0.0405 ± 0.00331 µM
N.N.[Cl][Pt][Cl]	A549/DDP cisplatin-resistant	MTT	–	48 h, added: survivin siRNA 10 nM transfected 24 h before	–	34.1 ± 6.52 µM
C#CCCCOc1c2c(c(-c3ccc4c(c3)OCO4)c3cc(OC)c(OC)cc13)C(=O)OC2	HEK293	endosomal acidification	–	–	–	0.102 ± 0.019 µM
COc1c(C)c2c(c(O)c1C/C=C(\C)CCC(=O)O)C(=O)OC2	TE-671	cell proliferation	muscle cancer	–	–	0.724 µM
COc1cc2c(O)c3c(c(-c4ccc5c(c4)OCO5)c2cc1OC)C(=O)N(/N=C/c1cccnc1)C3	HEK293	endosomal acidification	–	–	–	8.71 ± 0.769 µM
CC(C)[C@H](NC(=O)[C@H](Cc1c[nH]c2ccccc12)NC(=O)[C@H](Cc1c[nH]cn1)NC(=O)[C@H](CCCNC(=N)N)NC(=O)[C@H](CCCNC(=N)N)NC(=O)[C@H](Cc1c[nH]c2ccccc12)NC(=O)[C@H](Cc1c[nH]c2ccccc12)NC(=O)[C@H](Cc1c[nH]cn1)NC(=O)[C@H](Cc1c[nH]c2ccccc12)NC(=O)[C@H](CCCNC(=N)N)NC(=O)[C@@H](N)CCCCN)C(=O)N[C@H](C(=O)N[C@@H](Cc1c[nH]c2ccccc12)C(N)=O)C(C)C	NL20	–	–	–	–	76 µM

Repeated from above:
SMILES	cell line	assay	system	conditions	how to read	IC50
COc1cc2c(O)c3c(c(-c4ccc5c(c4)OCO5)c2cc1OC)C(=O)N(/N=C/c1cccnc1)C3	HEK293	endosomal acidification	–	–	–	8.71 ± 0.769 µM
CN1CCN(S(=O)(=O)c2cc([N+](=O)[O-])ccc2N(CCOS(C)(=O)=O)CCOS(C)(=O)=O)CC1	sample G B-ALL PDX cells	cell viability	ex vivo	48 h, added: AKR1C3 inhibitor 1 µM, 1 h pretreatment	–	22.7 µM
